Experimental data gathered from unrelated publications.
Each line is one published result; not all experiments were run side by side. Several values in a cell are separate wells, animals, samples, runs or records. ± gives the spread as reported. Converted amounts (≈) assume the structure as drawn.
Sequence of UniProt Q13418 (whole entry, looked up): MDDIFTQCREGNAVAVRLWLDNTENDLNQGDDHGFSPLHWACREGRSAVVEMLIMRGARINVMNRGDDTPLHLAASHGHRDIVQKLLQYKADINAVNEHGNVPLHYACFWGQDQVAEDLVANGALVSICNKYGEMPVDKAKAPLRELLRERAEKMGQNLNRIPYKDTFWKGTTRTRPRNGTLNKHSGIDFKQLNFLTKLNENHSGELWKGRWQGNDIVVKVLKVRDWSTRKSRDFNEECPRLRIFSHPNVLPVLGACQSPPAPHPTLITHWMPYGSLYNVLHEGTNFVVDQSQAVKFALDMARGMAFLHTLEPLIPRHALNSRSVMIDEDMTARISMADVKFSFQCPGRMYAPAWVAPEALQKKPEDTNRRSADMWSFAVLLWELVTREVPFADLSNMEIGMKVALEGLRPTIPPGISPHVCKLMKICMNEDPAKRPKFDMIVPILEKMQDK

CCCCCc1cc(O)c2c(c1)OC(C)(C)[C@@H]1CCC(C)=C[C@@H]21 — result for Hyperactive motility: “decreased” (capacitated human sperm; CASA; 10 µM, 1 h).
For CC(C)(C)c1cc(C(=O)/C(C#N)=N/Nc2cccc(Cl)c2)no1, the maximum inhibition was 12.5% (human coronavirus OC43; virus-induced cell killing; MRC-5; screen).
With O=C(NCCCN1CCCCCC1)c1ccc2c(c1)sc1nc(-c3ccccc3)cn12 the maximum response was -32.5% (Vero-E6; CellTiter-Glo ATP; 72 h, retest 8-point duplicates; baseline: DMSO 0%, hyamine -100%, more negative, more toxic).
COc1ccc(CCC2CCCC(CCc3ccc(OC)cc3)N2C[C@@H](O)CO)cc1.Cl (stereo in doubt) has a DOPAC overflow of 155 ± 48.6 pg/30 mL/mg (rat striatal slices; 3 µM, 30 min, no methamphetamine).
With COc1ccc(-c2ccc3c(N4CCOCC4)nc(N4C[C@@H](C)O[C@@H](C)C4)nc3n2)cc1CO the maximum inhibition was 0% (human coronavirus OC43; virus-induced cell killing; MRC-5; maximum over 10 doses).
For CC(C)NCCc1c[nH]c2cccc(O)c12.O=C(O)/C=C/C(=O)O, “body temperature change” read -0.2 ± 0.2 °C (C57BL/6J mice; subcutaneous, 10 mg/kg; baseline: pre-session baseline).
Cc1[nH]c(/C=C2\C(=O)Nc3ccc(S(=O)(=O)N(C)c4cccc(Cl)c4)cc32)c(C)c1C(=O)N1CCN(C)CC1 has a maximum inhibition of 9.76% (human coronavirus OC43; virus-induced cell killing; MRC-5; screen).
COc1cc(CCNC(C)c2ccccc2O)c(OC)cc1Br.Cl (centres unmarked): “fold gain in potency” 10 fold (5-HT2C V102L mutant, human; Gq dissociation, BRET; baseline: wild-type 5-HT2C).
For CCCNCCc1c[nH]c2cccc(O)c12.CCCNCCc1c[nH]c2cccc(O)c12.O=C(O)/C=C/C(=O)O, “body temperature change” read -0.1 ± 0.2 °C (C57BL/6J mice; subcutaneous, 3 mg/kg; baseline: pre-session baseline).
The maximum response of Oc1ccccc1-c1nc(-c2cccs2)c(-c2cccs2)[nH]1 is reported as -16.9% (Vero-E6; CellTiter-Glo ATP; 72 h, first round 5-point; baseline: DMSO 0%, hyamine -100%, more negative, more toxic).
Under “plasma NEFA level”, C[C@]12CC[C@H]3[C@@H](CC=C4CC(O)CC[C@@]43CO)[C@@H]1CCC2O (some centres unmarked) is recorded as “decreased” (GAN diet MASH rats; ip, 20 mg/kg, two weeks; baseline: GAN vehicle).
Under “body temperature change”, O=C(O)/C=C/C(=O)O.Oc1cccc2[nH]cc(CCNC3CCCCC3)c12 is recorded as -0.1 ± 0.1 °C (C57BL/6J mice; subcutaneous, 0.03 mg/kg; baseline: pre-session baseline).
With COc1c(C)c2c(c(O)c1C/C=C(\C)CCC(=O)O)C(=O)OC2 the IC50 was 0.631 µM (MIA PaCa-2; cell proliferation).
COc1cc(CCNC(C)c2ccccc2O)c(OC)cc1C#N.Cl (centres unmarked): “fold gain in potency” 15 fold (5-HT2C V102L mutant, human; Gq dissociation, BRET; baseline: wild-type 5-HT2C).
CC(C)N(CCC(C(N)=O)(c1ccccc1)c1ccccn1)C(C)C (centres unmarked) gave an inhibition of 22.4% (Nedd8-cullin1 interaction; neddylation, AlphaScreen; 100 µM).
With COc1c(CCC[P+](c2ccccc2)(c2ccccc2)c2ccccc2)cc2c(c1OC)OCO2.[I-] the Log10TGI was > -4 log M (NCI/ADR-RES; SRB).
CC(C)(C)NCCc1c[nH]c2cccc(O)c12.CC(C)(C)NCCc1c[nH]c2cccc(O)c12.O=C(O)/C=C/C(=O)O — result for “body temperature change”: 0.1 ± 0.2 °C (C57BL/6J mice; subcutaneous, 0.3 mg/kg; baseline: pre-session baseline).
The event-free survival of CN1CCN(S(=O)(=O)c2cc([N+](=O)[O-])ccc2N(CCOS(C)(=O)=O)CCOS(C)(=O)=O)CC1 is reported as 59.7 days (NSG mice, sample BH PDX; intraperitoneal, 25 mg/kg weekly x3).
C[C@H]1O[C@@H](O[C@H]2CC[C@@]3(C)[C@@H](CC[C@]4(C)[C@@H]3C=C[C@]35OC[C@@]6(CCC(C)(C)C[C@H]63)[C@@H](O)C[C@]54C)[C@]2(C)CO)[C@H](O)[C@@H](O[C@@H]2O[C@H](CO)[C@@H](O)[C@H](O)[C@H]2O)[C@H]1O has a mRNA level of 0.51 and 0.89 and 0.95 and 0.74 (measured: PGC-1α; ethanol-fed mice, hepatic SIRT1 knockdown (AAV8-TBG-SIRT1), liver; dose not given, high dose, unit not given; baseline: AAV8-TBG-Null ethanol group).
Under “body temperature change”, CCCCNCCc1c[nH]c2cccc(O)c12.O=C(O)/C=C/C(=O)O is recorded as -0.3 ± 0.1 °C (C57BL/6J mice; subcutaneous, 0.03 mg/kg; baseline: pre-session baseline).
O=C1N[C@@H]2[C@@H](O)[C@@H](O)[C@H](O)[C@@H](CO)N2C1=O has a maximum inhibition of 15.8% (human coronavirus OC43; virus-induced cell killing; MRC-5; screen).
N.N.[Cl][Pt][Cl] gave an IC50 of 63.5 µM (Cal27CisR; cell viability, MTT; 48 h).
The maximum inhibition of O=C(c1cc(Cc2n[nH]c(=O)c3ccccc23)ccc1F)N1CCN(C(=O)C2CC2)CC1 is reported as 0% (human coronavirus OC43; virus-induced cell killing; MRC-5; maximum over 10 doses).
COc1ccc2c(c1)[nH]c1c(C)nccc12 has a DNA methylation of 90.2% (DU-145; bisulfite pyrosequencing, measured: RASSF1A promoter CpG site 12; 10 µM, 16 h).
Under “body temperature change”, C=CCNCCc1c[nH]c2cccc(O)c12.C=CCNCCc1c[nH]c2cccc(O)c12.O=C(O)/C=C/C(=O)O is recorded as -0.3 ± 0.1 °C (C57BL/6J mice; subcutaneous, 3 mg/kg; baseline: pre-session baseline).
For OC(c1ccccc1)(c1ccccc1)C1CCNCC1, the inhibition was 39.8% (THP-1; pyroptotic LDH release; 2 µM, 40 min, added: LPS then nigericin).
Under “log2 fold change”, CC[C@H](C)[C@@H]1NC(=O)[C@@H]2CCCN2C(=O)[C@H](CC(C)C)NC(=O)[C@H](CC(C)C)NC(=O)CNC(=O)[C@@H](NC(=O)[C@@H](NC(=O)[C@H](CC(=O)O)NC(=O)CNC(=O)[C@@H](NC(=O)[C@H](C)NC(=O)CNC(=O)[C@H](CCCCN)NC(=O)[C@H](CC(C)C)NC(=O)[C@H](CC(C)C)NC(=O)[C@H](CCCCN)NC(=O)CNC(=O)[C@@H](NC(=O)[C@@H](N)CC(C)C)C(C)C)C(C)C)C(C)C)CSSC[C@@H](C(=O)O)NC1=O is recorded as -2.35 (RNA-seq, measured: Ncf2; mouse, traumatic brain injury model, frontal cortex and hippocampus; dose not given; baseline: TBI alone).
Under “body temperature change”, CCNCCc1c[nH]c2cccc(O)c12.CCNCCc1c[nH]c2cccc(O)c12.O=C(O)CCC(=O)O is recorded as -0.2 ± 0.1 °C (C57BL/6J mice; subcutaneous, 3 mg/kg; baseline: pre-session).
For Cn1cncc1C1=CN(c2ncnc3[nH]cnc23)CCS1, the TGI was 85.1 µM (Malme-3M; melanoma cell line).
Nc1ncnc2c1ncn2[C@@H]1O[C@@H]2COP(=O)(O)O[C@H]3[C@@H](O)[C@H](n4cnc5c(=O)[nH]cnc54)O[C@@H]3COP(=O)(O)O[C@H]2[C@H]1O: “pathway fold enrichment” 6.58 (HFF-1; RNA sequencing Reactome analysis, measured: Reactome R-HSA-5669034; added: West Nile virus infection; baseline: West Nile virus infected cells, upregulated pathway).
For COc1cc(CCC[P+](c2ccccc2)(c2ccccc2)c2ccccc2)c(OC)c2c1OCO2.[I-], the LC50 was > -4 log M (SW-620; SRB).
For CCCCC1(CCCC)CN(c2ccccc2)c2cc(SC)c(OCC(=O)N[C@@H](C(=O)NCC(=O)O)c3ccccc3)cc2S(=O)(=O)C1, the serum LDL-C was 92.3 mg/dL (measured: LDL cholesterol; human, serum; 10 mg once daily, day 8).
CN(NC(=O)CC(=O)NN(C)C(=S)c1ccccc1)C(=S)c1ccccc1 has a maximum inhibition of 28.6% (human coronavirus OC43; virus-induced cell killing; MRC-5; screen).
With C[C@H]1CN(c2n[nH]c3nc(N[C@H]4CC[C@H](NS(=O)(=O)CCC(F)(F)F)CC4)ncc23)CCO1 the IC50 was ≥ 20 µM (ILK (Homo sapiens, UniProt Q13418); biochemical).
For Nc1cccc2c1CN(C1CCC(=O)NC1=O)C2=O (centres unmarked), the maximum inhibition was 0% (human coronavirus OC43; virus-induced cell killing; MRC-5; maximum over 10 doses).
CN(C)[C@@H]1C(O)=C(C(N)=O)C(=O)[C@@]2(O)C(O)=C3C(=O)c4c(O)cccc4[C@@](C)(O)[C@H]3C[C@@H]12 gave an MIC of 1 µg/mL (≈ 2.25 µM) (Salmonella enterica; 20 h, pH 5.5).
With C/C=C1\NC(=O)[C@H]2CSSCC/C=C/[C@H](CC(=O)N[C@H](C(C)C)C(=O)N2)OC(=O)[C@H](C(C)C)NC1=O the maximum inhibition was 0% (human coronavirus OC43; virus-induced cell killing; MRC-5; maximum over 10 doses).
Under “maximum cellular uptake”, N[C@@H](C[18F])C(=O)O is recorded as 11.5 ± 1.1 %ID/100 µg protein (U-87 MG tumour model; host not given; 5 min).

Repeated from above:
CN(C)[C@@H]1C(O)=C(C(N)=O)C(=O)[C@@]2(O)C(O)=C3C(=O)c4c(O)cccc4[C@@](C)(O)[C@H]3C[C@@H]12 gave an MIC of 1 µg/mL (≈ 2.25 µM) (Salmonella enterica; 20 h, pH 5.5).
With C/C=C1\NC(=O)[C@H]2CSSCC/C=C/[C@H](CC(=O)N[C@H](C(C)C)C(=O)N2)OC(=O)[C@H](C(C)C)NC1=O the maximum inhibition was 0% (human coronavirus OC43; virus-induced cell killing; MRC-5; maximum over 10 doses).
